Results from different studies.
Lines come from different studies, so protocols differ. ± gives the spread as reported. In brackets after ≈: the same amount, converted by molar mass.
Organism: Escherichia coli

SMILES | assay | system | setting | scale | endpoint | result
O=c1c(Cl)c(Cl)cnn1Cc1ccccc1Cl |  | wild type, minimal medium | anaerobic |  | concentration for full growth inhibition | 10 µM
CC[C@H](C)[C@H](NC(=O)[C@H](CCCN)NC(=O)[C@H](CC(N)=O)NC(=O)[C@H](Cc1c[nH]c2ccccc12)NC(=O)[C@H](Cc1ccccc1)NC(=O)[C@H](CCCN)NC(=O)[C@H](CCCNC(=N)N)NC(=O)[C@H](CC(C)C)NC(=O)[C@H](Cc1c[nH]c2ccccc12)NC(=O)[C@H](CCCN)NC(=O)[C@H](CCCNC(=N)N)NC(=O)[C@H](CC(C)C)NC(=O)CNC(C)=O)C(=O)N[C@@H](CCCN)C(=O)N[C@@H](CCCNC(=N)N)C(N)=O |  | ATCC 25922 | 12 h, with: plasma pretreatment | baseline: MIC without plasma pretreatment | MIC fold increase | 4 fold
CC(=O)[O-].O.O.O.O.[Mn+2].[O-]c1ccc(Br)cc1C=NCCN1CCOCC1 |  |  | 20 µL of 100 µM per disc |  | inhibition zone diameter | 19 mm
O=S(=O)(c1ccccc1)N(CCc1nnc(S)o1)c1ccccc1 | cup plate method |  | 100 µg/mL | baseline: cotrimoxazole | relative inhibition | 20.7%
CC(C)C[C@@H]1NC(=O)[C@H](CCCCN)NC(=O)CNC(=O)[C@H]2CCCN2C(=O)[C@H](CCCCN)NC(=O)[C@H](CC(C)C)NC(=O)[C@H](CCCCN)NC(=O)[C@H](CC(C)C)NC(=O)[C@H](CCCCN)NC(=O)C(N)CCC=CCCC(C(N)=O)NC(=O)[C@H](CCCCN)NC(=O)[C@H](CC(C)C)NC(=O)[C@H](CCCCN)NC1=O (stereo partly shown) |  | ATCC 25922 | 1× MIC |  | time to complete killing | ≤ 6 h
CC[C@H](C)[C@H](NC(=O)[C@H](CS)NC(=O)[C@@H](NC(=O)[C@@H]1CCCN1C(=O)[C@H](Cc1ccccc1)NC(=O)[C@H](CC(N)=O)NC(=O)[C@@H](NC(=O)[C@H](CC(=O)O)NC(=O)CCNC(=O)CNC(=O)O[C@H]1CC[C@@]2(C)C(=CC[C@H]3[C@@H]4CC[C@H]([C@H](C)CCCC(C)C)[C@@]4(C)CC[C@@H]32)C1)[C@@H](C)O)[C@@H](C)CC)C(=O)N[C@@H](Cc1ccccc1)C(N)=O | Picrosirius Red staining | mouse, lung | intratracheal, 25 nmol per mouse, 24 h |  | collagen deposition | increased
Cc1c2c(cc3oc(=O)cc(-c4ccccc4)c13)C(=O)c1cccc(O)c1C2=O |  | MTCC 739 | 100 µg/disc |  | inhibition zone diameter | 12 mm
Cn1c(SCCN2CCCC2)nnc1C12CC3CC(CC(C3)C1)C2 |  | IFO 3301 | 200 µg/disc, 24 h, 37 °C |  | inhibition zone diameter | < 10 mm
CCn1cc(/C=C/c2ccc3ccccc3[n+]2CC)c2ccccc21 |  | 780 | 24 h |  | MBC | 16 ± 0.001 µg/mL
c1ccc(CN2CCOCCOCCN(CCCCCCCCCCCCCCN3CCOCCOCCN(CCCCCCCCCCCCCCN4CCOCCOCCN(Cc5ccccc5)CCOCCOCC4)CCOCCOCC3)CCOCCOCC2)cc1 | K+ selective electrode | tetracycline-resistant | 4 µM, 10 min | baseline: total | potassium release | 40%
C[C@]1(COC(=O)c2ccccc2O)[C@H](C(=O)O)N2C(=O)/C(=C/c3ccccn3)[C@H]2S1(=O)=O | broth microdilution | TG1 expressing FOX-4 | 16 µg/mL |  | MIC of ceftazidime | 2 µg/mL
c1ccc(CN2CCOCCOCCN(CCCCCCCCCCCCN3CCOCCOCCN(CCCCCCCCCCCCN4CCOCCOCCN(Cc5ccccc5)CCOCCOCC4)CCOCCOCC3)CCOCCOCC2)cc1 | K+ selective electrode | tetracycline-resistant | 4 µM, 10 min | baseline: total | potassium release | 21%
C[C@@H](O)[C@H](NC(=O)c1ccc(C#Cc2ccc(CN3CCOCC3)cc2)cc1)C(=O)NO | microbial growth, broth dilution |  | clinical isolate |  | MIC90 | 0.25 µg/mL (≈ 0.571 µM)

Repeated from above:
SMILES | assay | system | setting | scale | endpoint | result
CCn1cc(/C=C/c2ccc3ccccc3[n+]2CC)c2ccccc21 |  | 780 | 24 h |  | MBC | 16 ± 0.001 µg/mL
c1ccc(CN2CCOCCOCCN(CCCCCCCCCCCCCCN3CCOCCOCCN(CCCCCCCCCCCCCCN4CCOCCOCCN(Cc5ccccc5)CCOCCOCC4)CCOCCOCC3)CCOCCOCC2)cc1 | K+ selective electrode | tetracycline-resistant | 4 µM, 10 min | baseline: total | potassium release | 40%
